Measurements collected from several papers.
± gives the spread as reported.
Cell line: HCT-116

Under “cells in G2/M phase”, `O=[N+]([O-])c1cc(I)c(O)c(C=NNc2ccccc2)c1` is recorded as 32.3% (cell cycle analysis; IC50, 24 h).
`Cn1cnc2c(F)c(Nc3ccc(Br)cc3F)c(C(=O)NOCCO)cc21` gave a viability of 24.1% (10 µM, 72 h).
`O=P1(C2CCCCC2)CCCCC1` — result for “late apoptotic cells”: 3.2% (Annexin V-FITC/PI flow cytometry; IC50, 72 h).
For `NC(=O)NOCCCCCCCCCCCCCC[P+](c1ccccc1)(c1ccccc1)c1ccccc1.O=C([O-])C(F)(F)F`, the cell confluence was 28.6% (cell growth, live-cell imaging; 1 µM, control at 90% confluence).
`O=[N+]([O-])c1cc(Br)c(O)c(C=NNc2ccc(C(F)(F)F)cc2)c1` gave an IL-6 level of 41% (ELISA; culture supernatant; IC50, with: LPS).
With `NC(=O)NOCCCCCCCCCCCCCCCC[P+](c1ccccc1)(c1ccccc1)c1ccccc1.O=C([O-])C(F)(F)F` the cell confluence was 11.6% (cell growth, live-cell imaging; 1 µM, control at 90% confluence).
Under “G0/G1 phase cells”, `COc1nc(NCc2cn(-c3ccc(C(=O)Nc4ccccc4)cc3)nn2)nc(OC)n1` is recorded as 1.21 fold (flow cytometry; IC50, 24 h; reference: untreated).
The cell confluence of `NC(=O)NO` is reported as 17.3 ± 3.35% (cell growth, live-cell imaging; 300 µM, control at 90% confluence).
The viability of `O=C(NOC[C@H](O)CO)c1ccc(F)c(F)c1Nc1ccc(I)cc1F` is reported as 17% (10 µM, 72 h).
`COc1nc(NCc2cn(-c3ccc(C(=O)Nc4ccc(C(F)(F)F)cc4)cc3)nn2)nc(OC)n1`: “cell cycle phase %S” 36.2% (flow cytometry; IC50, 24 h).

Repeated from above:
With `NC(=O)NOCCCCCCCCCCCCCCCC[P+](c1ccccc1)(c1ccccc1)c1ccccc1.O=C([O-])C(F)(F)F` the cell confluence was 11.6% (cell growth, live-cell imaging; 1 µM, control at 90% confluence).
